Measured values pooled from the literature.
Each line is one published result; not all experiments were run side by side. Numbers after ± are the reported error. Converted amounts (≈) assume the structure as drawn.

CC(=C(c1ccc(O)cc1)c1ccc(Cl)cc1)c1ccc(Cl)cc1
GI50 (SF-268; cell growth or viability, SRB): 0.74 µM

O=Cc1c(O)ccc2ccccc12
log2 fold change (HUVEC; RNA sequencing, measured: DDIT4; 75 µM, 24 h; reference: DMSO): 3.21

Cn1cc(-c2cc(N3CCCCS3(=O)=O)ccc2N[C@H]2CC[C@H](C)CC2)c2cc[nH]c2c1=O (stereo in doubt)
GI50 (CHL; cell growth or viability, CCK-8; 72 h): 1.1 µM

[64Cu+2].c1ccc(CNCc2ccc(CN3CCCN4CCNCCCN(CC4)CC3)cc2)nc1
tissue uptake (CXCR4 (human); NOD/SCID mice, U87 xenografts, U87 control tumour; 90 min post-injection): 1.98 ± 0.49 %ID/g

CCC(=C(c1ccc(Cl)cc1)c1ccc(OCCCN(C)C)cc1)c1ccc(OC)cc1
GI50 (SF-268; cell growth or viability, SRB): 7.6 µM

NS(=O)(=O)Nc1ncnc(OCCOc2ncc(Br)cn2)c1-c1ccc(Br)cc1
Vmax (metabolite formation; male Sprague-Dawley rat, liver microsomes; 50 mg/kg daily for 4 weeks): 709 ± 67 pmol/min/mg

C1=[N+]2CCCC[N+]3=Cc4ccc5[n]4[Au-]23[n]2c1ccc2-c1nc2ccccc2nc1-5.F[P-](F)(F)(F)(F)F
GI50 (NCI60 human cancer panel; mean of all cell lines): 7 µM

COc1cc(CCC(C)=O)ccc1O
IC50 (mouse mAb 1-D6; antibody binding, indirect competitive ELISA; with: coating antigen 2-OVA): 2.77 µg/mL (≈ 14.3 µM)

Cc1cc(C)nc(SCC(=O)Nc2ncc(Cc3cccc(OCc4cn(Cc5ccc(C#N)cc5)nn4)c3)s2)n1
GI50 (HGC-27; cell growth or viability, MTS): 7.85 µM

CC/C=C\C/C=C\C/C=C\C/C=C\C/C=C\C/C=C\CCC(=O)Nc1ccn(C2OC(CO)C(O)C2(F)F)c(=O)n1 (stereo not shown)
GI50 (SF-268; cell growth or viability, SRB): 0.0542 µM

Fc1cccc(CNc2nc(NCc3ccccc3)c3ccccc3n2)c1
GI50 (SW-403; cell growth or viability; 24 h): 4.6 µM

CCCCC/C=C/C(=O)CCc1ccc(O)c(OC)c1
IC50 (mouse mAb 1-D6; antibody binding, indirect competitive ELISA; with: coating antigen 2-OVA): 1.9 µg/mL (≈ 6.87 µM)

COc1cccc2c(NCc3ccccc3)nc(Nc3cccc(F)c3)nc12
GI50 (SW-403; cell growth or viability; 72 h): 4 µM

CCCC(C)NC(=O)C(Nc1ccccc1C(=O)c1ccccc1)c1cn(C)c2ccccc12 (stereo not shown)
GI50 (SJ-G2; cell growth or viability, MTT; 72 h): 6.7 µM

COc1cccc(CNc2nc(NCc3ccccc3)c3ccccc3n2)c1
GI50 (SW-403; cell growth or viability; 72 h): 3 µM

CCN1CCN(Cc2ccc(C(=O)Nc3ccc(C)c(NCc4cnc5[nH]ccc5c4OC)c3)cc2C(F)(F)F)CC1
GI50 (HCT-116, overexpressing wild type; cell proliferation; 48 h): 0.81 µM

Some of these lines once more:
COc1cccc2c(NCc3ccccc3)nc(Nc3cccc(F)c3)nc12
GI50 (SW-403; cell growth or viability; 72 h): 4 µM

Fc1cccc(CNc2nc(NCc3ccccc3)c3ccccc3n2)c1
GI50 (SW-403; cell growth or viability; 24 h): 4.6 µM
